Results gathered from unrelated publications.
Lines come from different studies, so protocols differ. Values joined by “and” are separate records of one study, mostly repeats; a detail may differ.
Target: Eukaryotic translation initiation factor 2-alpha kinase 1 (EIF2AK1, Homo sapiens, UniProt Q9BQI3)

| SMILES | test | system | setting | how to read | measurement | value |
| --- | --- | --- | --- | --- | --- | --- |
| O=C(Cc1ccc(OCc2ccccc2)cc1)NC1(C(=O)O)CCN(C(=O)c2ccc(-c3cccc(Cl)c3)cc2)CC1 | enzyme activity, inhibitor |  | 10 µM |  | activity vs control | 82% |
| CNC(=O)C[C@H](Cc1ccc(C#N)cc1)NC(=O)c1cc(-c2ccc(CN[C@H](C)c3ccc(C)cc3)o2)ccc1Cl | enzyme activity, inhibitor |  | 1 µM |  | activity vs control | 103% |
| CNC(=O)C1CCN(c2cc(C)c(F)cc2NC(=O)c2ccc(-c3cc(O)ccc3C)c(C)c2)CC1 | binding, competition with immobilised ligand |  | 1 µM |  | remaining binding | 99% |
| COc1cc(Nc2nc(C)cc(-c3cnn4nc(OC)ccc34)n2)cc(C(F)(F)F)c1 | inhibitor |  | 1 µM | baseline: control | remaining activity | 89% |
| CC(C)=CC1OC(C)(C)C2C=C3C(=O)C(Cl)=CC(O)C3C3C(O)C4OC4C(=O)C132 (stereo not shown) | cell-free assay, competition with immobilised ligand |  | 10 µM |  | remaining binding | 89% |
| COc1cc(Nc2nccc(-c3cnn4nc(OC)ccc34)n2)cc(C(F)(F)F)c1 | binding, competition with immobilised ligand |  | 1 µM |  | remaining binding | 88% |
| C=CC(=O)N1CCc2ccc(-n3c(=O)ccc4cnc5ccc(-c6cnn(C)c6)cc5c43)cc21 | KINOMEscan |  | 1 µM | baseline: DMSO control | remaining binding | 100% |
| CCn1cc(C(=O)O)c(=O)c2c(N)c(F)c(NC3CCCCC3)cc21 | kinase activity |  | 0.1 µM, with: ATP at Km |  | inhibition | -0.5% |
| Cc1cnc2nc1Nc1cccc(c1)COC/C=C/COCc1cc(ccc1OCCN1CCOCC1)N2 | binding |  | 0.1 µM |  | remaining binding | 97% |
| CCN1CCN(Cc2ccc(C(=O)Nc3ccc(C)c(NCc4cnc5[nH]ccc5c4OC)c3)cc2C(F)(F)F)CC1 | binding, competition with immobilised ligand |  | 1 µM |  | remaining binding | 67% |
| CS(=O)(=O)Nc1cccc(-c2csc3cnc(Nc4ccc(N5CCN(CCCCCOc6cccc7c6C(=O)N(C6CCC(=O)NC6=O)C7=O)CC5)cc4)nc23)c1 (stereo not shown) | probe labelling, inhibitor, KiNativ chemoproteomics | MOLT-4 | 1 µM |  | inhibition | 37.8% |
| Nc1ncc2c(n1)-c1c([nH]c3ccc(C4=CCOCC4)cc13)CCC2 | binding, competition with immobilised ligand |  | 1 µM |  | remaining binding | 100% |
| Cc1ccc(-c2c(/C=C(\C#N)C(=O)NC(C)C)n(CCCO)c3ncnc(N)c23)cc1 | cell-free assay, competition with immobilised ligand |  | 1 µM |  | remaining binding | 100% |
| CN1CC[C@@H](COc2cnc(C#N)cc2-c2ccn3nc(NC(=O)C4CC4)cc3c2)C1 | enzyme activity, inhibitor |  | 1 µM |  | inhibition | 7% |
| CNC1C[S+]2CC[S+]3CC[S+](C1)[Ru-4]321([N]=C=S)[n]2c3ccc(OC)cc3c3c4c(c5cc(F)c[n+]1c5c32)C(=O)NC4=O (stereo not shown) | KinomeScan |  | 0.1 µM | baseline: untreated | remaining binding | 82% |
| Cc1cc(NC(=O)[C@H](O)c2cc(F)cc(F)c2)ccc1-c1cnc(N)c(C(=O)NC(C)C)c1 | binding, competition with immobilised ligand |  | 1 µM |  | remaining binding | 100% |
| COCC12C(=O)NC3C4(C(OC)CC1O)C1CC5(O)C(OC)C(O)C(OC(C)=O)(C1C5OC(=O)c1ccccc1)C3(O)C(OC)C24 (stereo not shown) | kinase activity, inhibitor, ProQinase kinase profiling |  | 25 µM | baseline: control | remaining activity | 97% and 96% |
| COc1c(Cl)cccc1Nc1c(-c2ccncc2C#C[C@@]2(C)CCCN2C(=O)/C=C/CN(C)C)[nH]c2c1C(=O)NCC2 | binding, competition with immobilised ligand |  | 3 µM |  | remaining binding | 84% |
| C=CC(=O)N1CCCC(n2c(=O)c3ncccc3n(Cc3ccc(Oc4ccccc4)cc3)c2=O)C1 (stereo not shown) | cell-free assay, competition with immobilised ligand |  | 1 µM |  | remaining binding | 90% |

Some of these lines once more:
| SMILES | test | system | setting | how to read | measurement | value |
| --- | --- | --- | --- | --- | --- | --- |
| CNC(=O)C[C@H](Cc1ccc(C#N)cc1)NC(=O)c1cc(-c2ccc(CN[C@H](C)c3ccc(C)cc3)o2)ccc1Cl | enzyme activity, inhibitor |  | 1 µM |  | activity vs control | 103% |
